Values quoted from earlier work, collected from citations in different studies.
Each line is one published result; not all experiments were run side by side. ± marks the error that the study gave.

Molecule = maraviroc; target or system = HIV-1; assay = viral infection; system = Env-pseudovirus panel; quantity = IC90; value = 2 nM
Molecule = CCN(CC)CCCC(C)Nc1ccnc2cc(Cl)ccc12 (stereo not shown); target or system = SARS-CoV; assay = cytopathic effect; system = Vero E6; quantity = EC50; value = 6540 nM
Molecule = C[C@H](NC(=O)[C@@H](c1cccnc1)N(C(=O)c1ccco1)c1ccc(-c2ccccc2)cc1)c1ccccc1; target or system = SARS-CoV-2 3CL protease; assay = enzyme activity, inhibitor; quantity = IC50; value = 200 nM
Molecule = C[C@H]1CO[C@@H]2Cn3cc(C(=O)NCc4ccc(F)cc4F)c(=O)c(O)c3C(=O)N12; target or system = HIV-1 integrase S230N; assay = viral replication; system = HIV-1; setting = single-round vector; quantity = EC50; value = 3.2 ± 0.5 nM
Molecule = Cn1c(Cn2ccc(C(F)(F)F)c(Oc3cc(Cl)cc(C#N)c3)c2=O)n[nH]c1=O; target or system = HIV-1; assay = viral replication; system = MT-4, E138K mutant; quantity = EC50; value = 37.4 ± 15.2 nM
Molecule = C[C@H](NCc1ccc(OCc2cccc(F)c2)cc1)C(N)=O; target or system = TTX-sensitive sodium channel; assay = sodium current; system = hippocampal neurons; setting = resting potential; quantity = IC50; value = ~100000 nM
Molecule = CN(C)CCOc1ccc(/C(=C(/CCCl)c2ccccc2)c2ccccc2)cc1; target or system = SARS-CoV; assay = cytopathic effect; system = Vero E6; quantity = EC50; value = 12000 nM
Molecule = C[C@@H]1CCO[C@H]2Cn3cc(C(=O)NCc4ccc(F)cc4F)c(=O)c(O)c3C(=O)N12; target or system = HIV-1 integrase S230N; assay = viral replication; system = HIV-1; setting = single-round vector; quantity = EC50; value = 7.9 ± 1.3 nM
Molecule = Cc1nnc(C(=O)NC(C)(C)c2nc(C(=O)NCc3ccc(F)cc3)c(O)c(=O)n2C)o1; target or system = HIV-1; assay = viral replication; system = integrase G118R mutant; quantity = EC50; value = 36 ± 5 nM
Molecule = O=C(NCc1c(F)cc(F)cc1F)c1cn2c(c(O)c1=O)C(=O)N1[C@H]3CC[C@H](C3)O[C@@H]1C2; target or system = HIV-1; assay = viral replication, single-round vector infection; system = IN N155H; quantity = EC50; value = 2.7 ± 0.8 nM
Molecule = CC(CN1c2ccccc2Sc2ccccc21)N(C)C (stereo not shown); target or system = Marburg virus; assay = pseudovirus entry, HIV pseudotype luciferase reporter; system = A549; quantity = IC50; value = 19100 nM
Molecule = CCC(C(=O)Nc1sc(C(N)=O)c(C)c1C(=O)OC)c1ccccc1 (stereo not shown); target or system = vaccinia virus DNA polymerase; assay = processive DNA synthesis, inhibitor; quantity = IC50; value = 13400 nM
Molecule = CCN(CC)Cc1cc(Nc2ccnc3cc(Cl)ccc23)ccc1O; target or system = Ebola virus; assay = viral replication; system = Vero E6, eGFP reporter; quantity = EC50; value = 34000 nM
Molecule = C[C@@H]1CCO[C@H]2Cn3cc(C(=O)NCc4ccc(F)cc4F)c(=O)c(O)c3C(=O)N12; target or system = HIV-1; assay = viral replication; system = integrase Y143R mutant; quantity = EC50; value = 4.3 ± 1.2 nM
Molecule = Cn1cnc(Cn2c(=O)[nH]/c(=N\c3cc4cn(C)nc4cc3Cl)n(Cc3cc(F)c(F)cc3F)c2=O)n1; target or system = human protease panel; assay = enzyme activity, inhibitor; setting = off-target; quantity = IC50; value = > 100000 nM
Molecule = CCSc1ccc2c(c1)N(CCCN1CCN(C)CC1)c1ccccc1S2; target or system = MERS-CoV; assay = viral replication, ELISA; system = Vero E6; quantity = EC50; value = 7860 nM

Repeated from above:
Molecule = CC(CN1c2ccccc2Sc2ccccc21)N(C)C (stereo not shown); target or system = Marburg virus; assay = pseudovirus entry, HIV pseudotype luciferase reporter; system = A549; quantity = IC50; value = 19100 nM
Molecule = CCC(C(=O)Nc1sc(C(N)=O)c(C)c1C(=O)OC)c1ccccc1 (stereo not shown); target or system = vaccinia virus DNA polymerase; assay = processive DNA synthesis, inhibitor; quantity = IC50; value = 13400 nM
